Measurements of several laboratories.
Each line is one published result; not all experiments were run side by side.

Compound	assay	test system	setting	scale	adverse event incidence [%]
NCCONC(=O)[C@@H]1CC[C@@H]2CN1C(=O)N2OS(=O)(=O)O	refers to: Mild severity	healthy Chinese men	intravenous, 2 g, treatment-related	–	12.5
Cc1c(C(=O)O)ccc2c3n(nc12)[C@@H]1[C@H](C3)N(CC2CC2)[C@@]2(C(=O)Nc3cc(Cl)ccc32)[C@H]1c1cccc(Cl)c1F	phase Ia trial, refers to: Vomiting	cancer patients	oral, dose not given, all patients grade ≥3	–	3.7
CC[C@H](C)[C@H](NC(=O)[C@H](Cc1ccccc1)NC(=O)[C@H](CCC(=O)O)NC(=O)[C@H](CCCCNC(=O)COCCOCCNC(=O)COCCOCCNC(=O)CC[C@H](NC(=O)CCCCCCCCCCCCCCCCC(=O)O)C(=O)O)NC(=O)[C@H](C)NC(=O)[C@H](C)NC(=O)[C@H](CCC(N)=O)NC(=O)CNC(=O)[C@H](CCC(=O)O)NC(=O)[C@H](CC(C)C)NC(=O)[C@H](Cc1ccc(O)cc1)NC(=O)[C@H](CO)NC(=O)[C@H](CO)NC(=O)[C@@H](NC(=O)[C@H](CC(=O)O)NC(=O)[C@H](CO)NC(=O)[C@@H](NC(=O)[C@H](Cc1ccccc1)NC(=O)[C@@H](NC(=O)CNC(=O)[C@H](CCC(=O)O)NC(=O)C(C)(C)NC(=O)[C@@H](N)Cc1cnc[nH]1)[C@@H](C)O)[C@@H](C)O)C(C)C)C(=O)N[C@@H](C)C(=O)N[C@@H](Cc1c[nH]c2ccccc12)C(=O)N[C@@H](CC(C)C)C(=O)N[C@H](C(=O)N[C@@H](CCCNC(=N)N)C(=O)NCC(=O)N[C@@H](CCCNC(=N)N)C(=O)NCC(=O)O)C(C)C	refers to: Vomiting	type 2 diabetes patients	dose not given	reference: subjects	20
CC[C@H](C)CCCCC(=O)N[C@@H](CCN)C(=O)N[C@H](C(=O)N[C@@H](CCN)C(=O)N[C@H]1CCNC(=O)[C@H]([C@@H](C)O)NC(=O)[C@H](CCN)NC(=O)[C@H](CCN)NC(=O)[C@H](CC(C)C)NC(=O)[C@@H](Cc2ccccc2)NC(=O)[C@H](CCN)NC1=O)[C@@H](C)O	refers to: nervous system disorders	long-term haemodialysis patients	IV, 0.75 mg/kg	–	100
CNC(=O)c1ccc(-c2cnc3ncc(Cc4ccc5ncccc5c4)n3n2)cc1F	phase 1 clinical trial, refers to: upper abdominal pain	dose escalation cohort	oral, dose not given, grade 3 or 4	–	0
CC(=O)O[C@H]1C(=O)[C@@]2(C)[C@H]([C@H](OC(=O)c3ccccc3)[C@]3(O)C[C@H](OC(=O)[C@H](O)[C@@H](NC(=O)c4ccccc4)c4ccccc4)C(C)=C1C3(C)C)[C@]1(OC(C)=O)CO[C@@H]1C[C@@H]2O	refers to: Pruritus	patients with advanced solid tumours	intravenous, dose not given, all grades, possibly related to drug	–	11
O=C1CCc2ccc(OCCCCN3CCN(c4cccc(Cl)c4Cl)CC3)cc2N1	refers to: Xerostomia	patients, CYP2D6 intermediate metabolizers	dose not given, long-acting oral or depot	–	12
FC(F)(F)c1ccc(CNc2ccc(Cc3c[nH]c4ncc(Cl)cc34)cn2)cn1	refers to: periorbital oedema	patients with advanced solid tumours	oral, dose not given, grade 1 and 2, possibly related to drug	–	13
Cc1c(Cl)c(C)[n+]([O-])c(Cl)c1-c1noc(-c2cc(O)c(O)c([N+](=O)[O-])c2)n1	refers to: Severe severity	healthy Chinese subjects	oral, 100 mg	–	0

For quick reference, copied from above:
Compound	assay	test system	setting	scale	adverse event incidence [%]
CNC(=O)c1ccc(-c2cnc3ncc(Cc4ccc5ncccc5c4)n3n2)cc1F	phase 1 clinical trial, refers to: upper abdominal pain	dose escalation cohort	oral, dose not given, grade 3 or 4	–	0
